Results pooled from the literature.
Lines come from different studies, so protocols differ. ± gives the spread as reported.

COC(=O)N[C@H](C(=O)N1CCC[C@H]1c1nc(-c2ccc(-c3ccc(-c4c[nH]c([C@@H]5CCCN5C(=O)[C@@H](NC(=O)OC)C(C)C)n4)cc3)cc2)c[nH]1)C(C)C  apparent volume of distribution (population PK base model; human; oral, dose not given): 65.2 L
C[C@H](Cn1cnc2c(N)ncnc21)OCP(=O)(O)O  apparent clearance (population PK model; human, plasma; oral, reduced model bootstrap median): 43.3 L/h
COc1cc(C(=O)NC2CCN(C)CC2)c(F)cc1Nc1ncc(C(F)(F)F)c(Oc2cccc3c2C(=O)N(C)C3)n1  apparent oral clearance CL/F (human patients, plasma; oral, 100 mg single dose, geometric mean): 123 mL/min
NC[C@@]1(CC(=O)O)[C@@H]2CC[C@H]3C[C@@H]2[C@@H]1C3  apparent unbound oral clearance (humans with normal renal function, plasma; geometric mean): 12.4 L/h
CNC(=O)c1ccc(N2C(=S)N(c3ccc(C#N)c(C(F)(F)F)c3)C(=O)C2(C)C)cc1F  apparent peripheral volume (population PK final model; human, male; oral, dose not given): 45.9 L
Nc1nc2cccc(-c3ccc(CN4CCS(=O)(=O)CC4)cc3)n2n1  apparent central volume (population PK SIR median; human; dose not given): 81.2 L
CC[C@@H]1CN(C(=O)NCC(F)(F)F)C[C@@H]1c1cnc2cnc3[nH]ccc3n12  apparent peripheral volume (Vp/F) (population PK modelling; human; oral, dose not given, final model, outliers excluded): 68 L
CCCOc1ccc([C@H]2CNC(=O)N2c2ccc3[nH]cnc3c2)cc1  apparent terminal half-life (human volunteers fasted, plasma; oral capsule, 200 mg single dose, crossover, geometric mean): 3.4 h
OC[C@H]1O[C@@H](c2ccc(Cl)c(Cc3ccc(O[C@H]4CCOC4)cc3)c2)[C@H](O)[C@@H](O)[C@@H]1O  apparent oral clearance (population pharmacokinetic model; human): 10.6 L/h
CC(C)(C)OC[C@@H]1C(=O)NCCN1C(=O)C[C@H](N)Cc1cc(F)c(F)cc1F  apparent oral clearance at steady state (human, plasma; oral, dose not given, 1, compound alone): 55.5 ± 12.8 L/h
Cl.[2H]C([2H])([2H])CC(=O)c1cnc(NC(=O)C2CC2)cc1Nc1cccc(-c2ncn(C([2H])([2H])[2H])n2)c1OC  apparent clearance (human, non-fasted; oral, 30 mg twice daily, day 14, multiple dose, tablet, geometric mean): 16 L/h
C=CC(=O)N(C)CCOc1c(N)ncnc1-c1cc(F)cc(NC(=O)c2ccc(C3CC3)cc2F)c1C  apparent clearance CL/F (human, whole blood; oral, 60 mg, single ascending dose): 280 L/h
CCCCC1=NC2(CCCC2)C(=O)N1Cc1ccc(-c2ccccc2S(=O)(=O)Nc2noc(C)c2C)c(COCC)c1  apparent clearance (CL/F) (healthy adult human volunteers; oral, 400 mg daily, 14 days multiple dosing): ~6.3 L/h
O=C(O)CCC(=O)O.[2H]C([2H])([2H])Oc1cc(C)c2[nH]ccc2c1CN1CC[C@@H](C2CC2)C[C@H]1c1ccc(C(=O)O)cc1  apparent volume of distribution (Vd/F) (healthy humans, fasted, plasma; oral, 200 mg, single dose): 67.2 L
Cc1nc(Nc2ncc(C(=O)Nc3c(C)cccc3Cl)s2)cc(N2CCN(CCO)CC2)n1  apparent clearance (CL/F) (human patients; 85 mg/m^2, day 42): 2500 ± 605 mL/min/m²
O=C(Nc1nc2cccc(-c3ccc(CN4CCS(=O)(=O)CC4)cc3)n2n1)C1CC1  apparent central volume (population PK SIR median; human; oral, dose not given): 105 L
Cn1cc(-c2cn3nccc3c(-c3cnn([C@]4(CC#N)C[C@@H](C#N)C4)c3)n2)cn1  apparent volume Vz/F (healthy humans fasted, plasma; 100 mg single dose, geometric mean): 2670 L
Cc1ccc(C)c(OCCCC(C)(C)C(=O)O)c1  apparent clearance (CL/F) increase (human, plasma; oral, dose not given, added: lopinavir-ritonavir; reference: without lopinavir-ritonavir): 69%
COc1ccc(-n2nc(C(N)=O)c3c2C(=O)N(c2ccc(N4CCCCC4=O)cc2)CC3)cc1  apparent peripheral volume (human, plasma; oral, dose not given, Full population PK model): 24.3 ± 1.93 L
NC(=O)N1c2ccccc2CC(=O)c2ccccc21  apparent volume of distribution (population PK modelling; human patients, plasma; oral, dose not given, joint parent-metabolite model): 25.7 L
C[C@@H](Oc1ccc(S(C)(=O)=O)cc1C(=O)N1C[C@@H]2C[C@]2(c2cc(C(F)(F)F)on2)C1)C(F)(F)F  apparent clearance at steady state (young healthy humans, plasma; oral, 25 mg once daily, multiple dosing): 76.6 mL/min
COC(=O)N[C@@H](C)CNc1nccc(-c2cn(C(C)C)nc2-c2cc(Cl)cc(NS(C)(=O)=O)c2F)n1  apparent volume Vz/F (human, plasma; oral, 50 mg, single dose alone; arithmetic mean): 160 ± 68.8 L
Cc1cc(C)c(CNC(=O)c2cc(Cl)c3c(c2C)O[C@@](C)([C@H]2CC[C@H](N(C)C)CC2)O3)c(=O)[nH]1  apparent peripheral volume V2/F (population PK model; human; oral, dose not given): 3670 L
Cn1cncc1-c1c(F)cncc1NC(=O)c1c(N)nn2cc(F)cnc12  apparent clearance (human patients, plasma; oral, 90 mg): 49.1 L/h
CC(=O)N(C)[C@H]1CCN(C(=O)c2cnc3c(c2)C[C@](C)(c2ccc(F)cc2)N3)C1  apparent oral clearance (healthy male human, plasma; oral, 30 mg once daily, steady state, geometric mean): 20.8 L/h
NC(N)=NCCC[C@@H](N)C(=O)N[C@@H](CCCN=C(N)N)C(=O)N1CCC[C@H]1C(=O)N1C[C@H](O)C[C@H]1C(=O)NCC(=O)N[C@@H](Cc1cccs1)C(=O)N[C@@H](CO)C(=O)N1Cc2ccccc2C[C@@H]1C(=O)N1[C@H](C(=O)N[C@@H](CCCN=C(N)N)C(=O)O)C[C@@H]2CCCC[C@@H]21  apparent clearance (CL/F) (popPK full model bootstrap median; human; subcutaneous): 15.4 L/h
C[C@@]1(c2cc(NC(=O)c3ccc(C#N)cn3)ccc2F)C=CSC(N)=N1  apparent clearance CL/F (elderly humans, both sexes, plasma; oral, 150 mg single dose, mean): 11.3 L/h
C=CC(=O)NC1CCN(c2ncc3ncnc(Nc4ccc(Oc5ccc6c(c5)ncn6C)c(C)c4)c3n2)CC1  apparent oral clearance (human; oral, 60 mg single dose, geometric mean): 9.06 L/h
CNC(=O)c1c(C)oc2cc(Oc3ncnc4cc(OC)c(OC)cc34)ccc12  apparent volume of distribution (population PK base model; human; oral, dose not given): 50.7 L
C=CC(=O)Nc1cc(Nc2ncc(C(=O)OC(C)C)c(-c3cn(C)c4ccccc34)n2)c(OC)cc1N(C)CCN(C)C  apparent oral clearance (healthy human volunteers; oral, capsule C vs capsules A and B): 111 L/h
CN(CC#N)C(=O)C[C@H](Nc1nc2ccccc2[nH]1)c1cccc(C(F)(F)F)c1  apparent clearance (human; intravenous infusion, 1.5 mg/kg, 1 mg/mL formulation): 13.6 ± 2.54 L/h
Cn1ncnc1[C@H]1c2n[nH]c(=O)c3cc(F)cc(c23)N[C@@H]1c1ccc(F)cc1  apparent clearance at steady state (human patients, plasma; 600 µg/m2/day): 70 ± 33.3 mL/min
COc1cc(Nc2ncc3c(n2)-c2ccc(Cl)cc2C(c2c(F)cccc2OC)=NC3)ccc1C(=O)O  apparent intercompartmental clearance (population PK model; human cancer patients, plasma; oral): 7.53 L/h
Cc1cc(C)c(CNC(=O)c2cc(Cl)c3c(c2C)O[C@@](C)([C@H]2CC[C@H](N(C)C)CC2)O3)c(=O)[nH]1  apparent volume of distribution (healthy male human, plasma; oral, 25 mg, alone, before fluconazole): 1310 L
NC(=S)NN=Cc1ncccc1N  apparent oral clearance (human smokers, plasma; oral, geometric mean, total): 164 L/h
COc1cc2c(Nc3ccc(Br)cc3F)ncnc2cc1OCC1CCN(C)CC1  apparent oral clearance (human patients, plasma; 65 mg/m^2, day 42): 67 ± 26 mL/min/m²
CCCn1cc(C)c2c(=O)[nH]c(-c3cc(S(=O)(=O)N4CCN(CC)CC4)ccc3OCC)nc21  apparent volume of distribution (Vd/F) (LC-MS/MS; human, plasma; oral, 100 mg, crossover trial, alone): 4820 ± 2030 L
CCCCCCCCCCCCCCCC(=O)N[C@@H](CCC(=O)NCCCC[C@@H]1NC(=O)[C@H]([C@@H](C)CC)NC(=O)[C@@H](NC(=O)[C@@H]2CCCN2C(=O)[C@H](Cc2ccccc2)NC(=O)[C@H](Cc2c[nH]cn2)NC(=O)[C@@H](NC(=O)[C@H](CC(=O)O)NC(=O)CC(C)C)[C@@H](C)O)CSSC[C@@H](C(=O)N[C@@H](CCCCN)C(N)=O)NC(=O)CNC(=O)[C@H](CCCCN)NC(=O)[C@H](CO)NC(=O)[C@H](CCCNC(=N)N)NC(=O)[C@@H]2CCCN2C(=O)[C@H](CCC(=O)O)NC(=O)[C@H](Cc2ccccc2)NC1=O)C(=O)O  apparent volume Vz/F (healthy human, plasma; subcutaneous, 20 mg, single dose, aqueous formulation): 79.2 ± 59.7 L
